Assay results from different studies.
Every numbered part comes from another study and shows a few of its results, in no order. Several values in a cell are separate wells, animals, samples, runs or records.
Sequence of UniProt P10721 (whole entry, unmodified, looked up): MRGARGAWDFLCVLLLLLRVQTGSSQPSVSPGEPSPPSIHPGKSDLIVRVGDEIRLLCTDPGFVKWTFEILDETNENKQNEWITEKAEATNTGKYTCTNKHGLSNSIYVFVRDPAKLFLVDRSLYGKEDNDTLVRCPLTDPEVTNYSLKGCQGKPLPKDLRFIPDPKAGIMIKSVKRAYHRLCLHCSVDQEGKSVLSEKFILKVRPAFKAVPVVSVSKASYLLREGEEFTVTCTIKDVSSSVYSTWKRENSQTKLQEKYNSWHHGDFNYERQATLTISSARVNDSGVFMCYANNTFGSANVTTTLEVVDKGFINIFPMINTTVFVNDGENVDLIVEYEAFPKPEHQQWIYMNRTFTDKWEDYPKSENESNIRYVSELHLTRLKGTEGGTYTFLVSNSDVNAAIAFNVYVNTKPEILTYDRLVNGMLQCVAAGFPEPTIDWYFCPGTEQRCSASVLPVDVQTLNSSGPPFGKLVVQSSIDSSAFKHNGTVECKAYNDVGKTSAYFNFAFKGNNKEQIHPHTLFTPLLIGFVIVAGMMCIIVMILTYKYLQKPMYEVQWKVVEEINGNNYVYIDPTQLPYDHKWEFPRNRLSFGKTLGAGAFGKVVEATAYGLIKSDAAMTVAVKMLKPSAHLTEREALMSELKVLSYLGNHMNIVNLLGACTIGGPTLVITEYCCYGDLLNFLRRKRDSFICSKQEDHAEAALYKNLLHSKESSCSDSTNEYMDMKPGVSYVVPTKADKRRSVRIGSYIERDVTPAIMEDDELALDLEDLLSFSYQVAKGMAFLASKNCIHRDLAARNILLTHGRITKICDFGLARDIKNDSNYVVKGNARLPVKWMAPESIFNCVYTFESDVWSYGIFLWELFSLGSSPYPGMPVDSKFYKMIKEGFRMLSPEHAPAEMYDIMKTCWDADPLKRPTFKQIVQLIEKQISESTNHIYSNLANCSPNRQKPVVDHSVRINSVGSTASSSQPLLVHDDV
Sequence of UniProt P51451 (whole entry, looked up): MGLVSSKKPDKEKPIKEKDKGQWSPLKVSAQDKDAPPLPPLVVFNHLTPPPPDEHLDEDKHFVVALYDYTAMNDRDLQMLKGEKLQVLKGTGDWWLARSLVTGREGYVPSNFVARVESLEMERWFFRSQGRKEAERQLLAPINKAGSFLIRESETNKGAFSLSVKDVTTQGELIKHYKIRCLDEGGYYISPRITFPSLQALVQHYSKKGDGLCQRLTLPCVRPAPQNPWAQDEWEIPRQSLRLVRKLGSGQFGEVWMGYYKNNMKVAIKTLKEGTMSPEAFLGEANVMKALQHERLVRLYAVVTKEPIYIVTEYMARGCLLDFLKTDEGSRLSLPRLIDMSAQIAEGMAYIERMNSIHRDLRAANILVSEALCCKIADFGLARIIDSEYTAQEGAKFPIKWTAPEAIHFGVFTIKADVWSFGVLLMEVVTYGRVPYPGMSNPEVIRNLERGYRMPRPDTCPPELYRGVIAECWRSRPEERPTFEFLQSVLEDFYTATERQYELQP
Sequence of UniProt P09619 (whole entry, looked up): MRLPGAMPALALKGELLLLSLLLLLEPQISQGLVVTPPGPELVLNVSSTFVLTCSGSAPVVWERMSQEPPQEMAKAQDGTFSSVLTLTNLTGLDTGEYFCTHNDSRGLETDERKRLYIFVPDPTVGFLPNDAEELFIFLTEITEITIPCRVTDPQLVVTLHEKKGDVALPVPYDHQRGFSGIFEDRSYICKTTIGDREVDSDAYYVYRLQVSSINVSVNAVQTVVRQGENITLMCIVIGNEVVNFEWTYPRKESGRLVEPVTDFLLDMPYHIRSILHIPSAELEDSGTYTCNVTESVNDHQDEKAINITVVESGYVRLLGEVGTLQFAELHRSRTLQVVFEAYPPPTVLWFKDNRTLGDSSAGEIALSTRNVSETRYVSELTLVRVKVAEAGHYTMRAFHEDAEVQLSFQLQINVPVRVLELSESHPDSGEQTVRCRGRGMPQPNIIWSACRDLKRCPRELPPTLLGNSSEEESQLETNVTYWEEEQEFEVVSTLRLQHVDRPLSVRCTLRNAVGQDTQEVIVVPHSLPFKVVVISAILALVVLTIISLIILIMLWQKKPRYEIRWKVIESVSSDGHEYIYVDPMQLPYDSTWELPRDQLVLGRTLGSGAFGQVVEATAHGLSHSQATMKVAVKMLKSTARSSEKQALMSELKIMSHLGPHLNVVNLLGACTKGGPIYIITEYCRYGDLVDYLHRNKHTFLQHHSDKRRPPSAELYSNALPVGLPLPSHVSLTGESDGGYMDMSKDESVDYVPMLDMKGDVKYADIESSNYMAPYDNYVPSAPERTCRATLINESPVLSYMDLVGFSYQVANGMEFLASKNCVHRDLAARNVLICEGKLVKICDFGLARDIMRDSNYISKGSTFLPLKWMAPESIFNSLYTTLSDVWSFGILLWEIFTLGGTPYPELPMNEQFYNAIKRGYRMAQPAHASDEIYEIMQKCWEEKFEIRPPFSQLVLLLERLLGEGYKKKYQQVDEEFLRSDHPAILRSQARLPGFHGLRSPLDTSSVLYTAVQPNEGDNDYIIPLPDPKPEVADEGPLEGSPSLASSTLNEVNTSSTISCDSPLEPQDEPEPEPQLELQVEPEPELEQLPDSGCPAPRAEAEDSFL
Sequence of UniProt Q9UPZ9 (whole entry, looked up): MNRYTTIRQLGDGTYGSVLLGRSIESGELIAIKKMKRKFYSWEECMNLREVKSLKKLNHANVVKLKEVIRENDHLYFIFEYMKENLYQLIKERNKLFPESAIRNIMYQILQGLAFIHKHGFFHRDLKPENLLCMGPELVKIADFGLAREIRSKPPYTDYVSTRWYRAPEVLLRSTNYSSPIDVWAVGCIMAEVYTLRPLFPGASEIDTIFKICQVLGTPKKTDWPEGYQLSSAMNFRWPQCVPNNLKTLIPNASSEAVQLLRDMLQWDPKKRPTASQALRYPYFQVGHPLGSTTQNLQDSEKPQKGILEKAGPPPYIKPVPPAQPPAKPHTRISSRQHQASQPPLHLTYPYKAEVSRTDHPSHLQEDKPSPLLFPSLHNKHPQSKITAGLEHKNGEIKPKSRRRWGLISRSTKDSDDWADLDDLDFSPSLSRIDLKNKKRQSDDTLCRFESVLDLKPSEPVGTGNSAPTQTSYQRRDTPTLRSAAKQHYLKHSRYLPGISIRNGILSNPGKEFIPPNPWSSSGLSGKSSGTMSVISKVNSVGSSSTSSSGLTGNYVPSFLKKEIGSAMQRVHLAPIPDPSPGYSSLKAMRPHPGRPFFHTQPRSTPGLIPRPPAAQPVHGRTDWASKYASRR
Sequence of UniProt P49674 (whole entry, looked up): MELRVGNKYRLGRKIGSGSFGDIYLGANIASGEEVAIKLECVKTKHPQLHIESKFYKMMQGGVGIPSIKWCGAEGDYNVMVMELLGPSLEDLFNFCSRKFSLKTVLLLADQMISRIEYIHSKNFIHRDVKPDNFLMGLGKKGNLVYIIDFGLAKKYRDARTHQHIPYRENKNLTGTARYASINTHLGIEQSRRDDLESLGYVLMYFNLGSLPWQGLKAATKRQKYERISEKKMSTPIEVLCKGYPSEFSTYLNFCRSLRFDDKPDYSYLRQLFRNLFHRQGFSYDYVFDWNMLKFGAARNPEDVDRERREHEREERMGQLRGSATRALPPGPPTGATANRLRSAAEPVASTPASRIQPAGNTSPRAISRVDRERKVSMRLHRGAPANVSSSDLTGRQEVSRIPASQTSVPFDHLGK
Sequence of UniProt Q8TDX7 (whole entry, looked up): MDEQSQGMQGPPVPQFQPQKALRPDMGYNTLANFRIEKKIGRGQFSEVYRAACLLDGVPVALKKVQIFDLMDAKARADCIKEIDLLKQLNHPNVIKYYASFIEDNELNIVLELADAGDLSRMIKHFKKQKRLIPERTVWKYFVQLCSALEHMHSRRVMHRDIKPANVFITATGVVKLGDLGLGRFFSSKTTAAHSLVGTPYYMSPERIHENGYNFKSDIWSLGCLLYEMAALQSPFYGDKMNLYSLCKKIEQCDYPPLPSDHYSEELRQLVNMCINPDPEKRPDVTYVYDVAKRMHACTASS

Block 1
Target: Eukaryotic initiation factor 4A-I (EIF4A1, Homo sapiens, UniProt P60842)
Sequence of UniProt P60842 (whole entry, looked up): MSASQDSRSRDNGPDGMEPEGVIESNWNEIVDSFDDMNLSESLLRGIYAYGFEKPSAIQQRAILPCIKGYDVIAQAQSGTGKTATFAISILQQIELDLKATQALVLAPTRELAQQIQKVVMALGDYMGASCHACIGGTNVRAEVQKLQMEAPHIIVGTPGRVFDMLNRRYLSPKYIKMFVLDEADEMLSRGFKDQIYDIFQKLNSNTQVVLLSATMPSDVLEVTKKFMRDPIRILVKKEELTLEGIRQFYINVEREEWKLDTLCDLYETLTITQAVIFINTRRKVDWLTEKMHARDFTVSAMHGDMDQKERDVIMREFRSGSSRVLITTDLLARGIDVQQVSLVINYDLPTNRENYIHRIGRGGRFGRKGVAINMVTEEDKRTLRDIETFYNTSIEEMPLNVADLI
Effect on: RNA clamping
Method: fluorescence polarization
Concentration: concentration not given
Setting: mean of two replicates
Added: FAM-labelled poly r(AG)8 RNA
Quantity: fluorescence polarization change
COc1ccc([C@@]23Oc4cc(OC)cc(OC)c4[C@]2(O)c2nc(C4CC4)[nH]c(=O)c2[C@H]3c2ccccc2)cc1: 48.3 mP and 60.7 mP and 66.7 mP
CCOCCOCCN(OC)C(=O)[C@H]1[C@@H](O)[C@@]2(O)c3c(OC)cc(OC)cc3O[C@@]2(c2ccc(OC)cc2)[C@@H]1c1ccccc1: 23.2 mP
CCOC(=O)COc1cc(OC)c2c(c1)O[C@@]1(c3ccc(OC)cc3)[C@H](c3ccccc3)c3c(nc(-c4ccccc4)[nH]c3=O)[C@@]21OCC(=O)OCC: -7.4 mP
COC(=O)[C@@H]1[C@@H](c2ccccc2)[C@]2(c3ccc(OC)cc3)Oc3cc(OC)cc(OC)c3[C@@]23NC(C2CCC2)=N[C@@]13O: 65.6 mP
C#CCOc1ccc(-c2nc3c(c(=O)n2CC#C)[C@@H](c2ccccc2)[C@]2(c4ccc(OC)cc4)Oc4cc(OC)cc(OC)c4[C@]32O)cc1: -2 mP
COc1cc(OC)c2c(c1)O[C@@]1(c3ccc(Br)cc3)[C@H](c3ccccc3)C3=C(N[C@H]4CCCN4C3=O)[C@@]21O: 43.9 mP
CN[C@@]12C(=O)[C@H](C(=O)OC)[C@@H](c3ccccc3)[C@]1(c1ccc(OC)cc1)Oc1cc(OC)cc(OC)c12: 6.9 mP
COc1cc(F)cc2c1[C@]1(O)[C@H](O)[C@@H](C#N)[C@H](c3ccccc3)[C@]1(c1ccc(Br)cc1)O2: 13.3 mP
COc1ccc([C@@]23Oc4cc(OC)cc(OC)c4[C@]2(O)C2=C(C(=O)N4CCC[C@@]4(C)N2)[C@H]3c2ccccc2)cc1: -0.7 mP
COCCOCOC(=C(F)F)c1ccc([C@@H]2[C@@H](C(=O)N(C)OC)[C@@H](O)[C@@]3(O)c4c(OC)cc(OC)cc4O[C@@]23c2ccc(OC)cc2)cc1: -8.8 mP

Block 2
Target: Calcium/calmodulin-dependent protein kinase type II subunit alpha (CAMK2A, Homo sapiens, UniProt Q9UQM7)
Sequence of UniProt Q9UQM7 (whole entry, looked up): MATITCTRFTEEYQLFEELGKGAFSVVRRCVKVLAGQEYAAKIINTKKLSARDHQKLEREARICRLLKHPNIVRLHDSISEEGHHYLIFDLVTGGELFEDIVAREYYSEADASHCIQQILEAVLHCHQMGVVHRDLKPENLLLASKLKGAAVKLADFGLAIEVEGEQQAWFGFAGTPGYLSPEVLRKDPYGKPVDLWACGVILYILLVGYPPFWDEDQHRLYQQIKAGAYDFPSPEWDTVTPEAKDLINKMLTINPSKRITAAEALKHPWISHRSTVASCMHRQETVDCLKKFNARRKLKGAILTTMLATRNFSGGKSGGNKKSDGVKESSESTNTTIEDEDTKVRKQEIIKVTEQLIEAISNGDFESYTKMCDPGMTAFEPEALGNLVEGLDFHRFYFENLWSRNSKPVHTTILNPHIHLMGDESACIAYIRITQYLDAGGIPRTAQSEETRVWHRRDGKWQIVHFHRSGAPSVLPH
Effect on: enzyme activity
Mode: inhibitor
Concentration: 10 µM
Quantity: inhibition
C[C@H](CC[C@@H](O[C@@H]1O[C@H](CO)[C@@H](O)[C@H](O)[C@H]1O)C(C)(C)O)[C@H]1CC[C@@]2(C)[C@@H]3CC=C4[C@@H](CC[C@H](O[C@@H]5O[C@H](CO)[C@@H](O)[C@H](O)[C@H]5O)C4(C)C)[C@]3(C)[C@H](O)C[C@]12C: 9%
CC(C)N(CC[C@H](c1ccccc1)c1cc(CO)ccc1O)C(C)C: 0%
COc1ccc(C(=O)CC(=O)c2ccc(C(C)(C)C)cc2)cc1: 7%
C/C=C1/[C@H](O[C@@H]2O[C@H](CO)[C@@H](O)[C@H](O)[C@H]2O)OC=C(C(=O)OC)[C@H]1CC(=O)OC[C@H]1O[C@@H](OCCc2ccc(OC(=O)C[C@@H]3C(C(=O)OC)=CO[C@@H](O[C@@H]4O[C@H](CO)[C@@H](O)[C@H](O)[C@H]4O)/C3=C/C)cc2)[C@H](O)[C@@H](O)[C@@H]1O: -39%
CS(=O)(=O)c1ccc([C@@H](O)[C@@H](CO)NC(=O)C(Cl)Cl)cc1: 3%
O=C(O)c1ccccn1: 18%
CC(=O)OCCC(C)CCC=C(C)C (stereo not drawn): -8%
CO[C@H]1/C=C/O[C@@]2(C)Oc3c(C)c(O)c4c(O)c(c(/C=N/N5CCN(C)CC5)c(O)c4c3C2=O)NC(=O)/C(C)=C\C=C\[C@H](C)[C@H](O)[C@@H](C)[C@@H](O)[C@@H](C)[C@H](OC(C)=O)[C@@H]1C: -1%
CC(=O)O[C@H]1CC[C@]2(C)[C@H]3CC=C4[C@@H]5CC(C)(C)CC[C@]5(C(=O)O)CC[C@@]4(C)[C@]3(C)CC[C@H]2C1(C)C: -23%

Block 3
Structure (SMILES): CO[C@H]1CC[C@H](CNc2ccc(S(=O)(=O)NC(=O)c3ccc(N4CCN(CC5=C(c6ccc(Cl)cc6)CC(C)(C)CC5)CC4)cc3Oc3cnc4[nH]ccc4c3)cc2[N+](=O)[O-])CC1
Method: competition with immobilised ligand
Concentration: 1 µM
Quantity: remaining binding
TEC (Homo sapiens, UniProt P42680); cell-free assay: 74%
BLK (Homo sapiens, UniProt P51451); cell-free assay: 76%
GAK (Homo sapiens, UniProt O14976); cell-free assay: 99%
CDK11A (Homo sapiens, UniProt Q9UQ88); binding: 95%
ABL2 (Homo sapiens, UniProt P42684); cell-free assay: 81%
CILK1 (Homo sapiens, UniProt Q9UPZ9); cell-free assay: 68%
PDGFRB (Homo sapiens, UniProt P09619); cell-free assay: 99%
KIT (Homo sapiens, UniProt P10721, D816H); cell-free assay: 76%
NEK7 (Homo sapiens, UniProt Q8TDX7); cell-free assay: 82%
INSRR (Homo sapiens, UniProt P14616); cell-free assay: 100%
Tyrosine-protein kinase JAK3, JH1 (JAK3, Homo sapiens, UniProt P52333); cell-free assay: 84%
EGFR (Homo sapiens, UniProt P00533, L858R/T790M); cell-free assay: 98%
RIPK4 (Homo sapiens, UniProt P57078); cell-free assay: 65%
CLK2 (Homo sapiens, UniProt P49760); cell-free assay: 100%
CSNK1E (Homo sapiens, UniProt P49674); cell-free assay: 88%

Block 4
Target: Bromodomain-containing protein 4, BD1 (BRD4, Homo sapiens, UniProt O60885)
Effect on: acetyl-histone H4 peptide binding
Method: AlphaScreen displacement
Concentration: 50 µM
Quantity: inhibition
CC[C@H](CO)Nc1nc(NCc2ccccc2)c2ncn(C(C)C)c2n1: 4.85%
Cc1nc(N)sc1-c1csc(Nc2ccc(Cl)cc2)n1: 81.7%
O=C1NC(=S)SC1=Cc1ccc(-c2ccccc2Cl)o1: 26.4%
CC(C)n1cnc2c(NCc3ccccc3)nc(NCCCO)nc21: 24.8%
Nc1nc(Nc2cccc(Cl)c2)sc1C(=O)c1ccc(F)cc1: 45%
CCOc1cc(C=C(C#N)C(N)=O)cc(CSc2ccccc2)c1O: 24.3%
COc1ccc(Nc2ncc3c(n2)CCN(C(=O)OC(C)(C)C)C3)cc1: 29.1%
CN(c1ccccc1CNc1nc(Nc2ccc3c(c2)CC(=O)N3)ncc1C(F)(F)F)S(C)(=O)=O: 99.7%
CCc1ccc(-c2csc3nc[nH]c(=O)c23)cc1: 11.8%
COC(=O)c1[nH]c2ccccc2c1NC(=O)CN(C)CC1OCCO1: 3.85%
c1cncc(-c2[nH]c3ncccc3c2CN2CCOCC2)c1: 10.8%

Repeated from above (block 4):
COc1ccc(Nc2ncc3c(n2)CCN(C(=O)OC(C)(C)C)C3)cc1: 29.1%
O=C1NC(=S)SC1=Cc1ccc(-c2ccccc2Cl)o1: 26.4%
CN(c1ccccc1CNc1nc(Nc2ccc3c(c2)CC(=O)N3)ncc1C(F)(F)F)S(C)(=O)=O: 99.7%
CC(C)n1cnc2c(NCc3ccccc3)nc(NCCCO)nc21: 24.8%
CCc1ccc(-c2csc3nc[nH]c(=O)c23)cc1: 11.8%
c1cncc(-c2[nH]c3ncccc3c2CN2CCOCC2)c1: 10.8%
